# Measured values gathered from unrelated publications.
# Lines come from different studies, so protocols differ. Several values in a cell are separate wells, animals, samples, runs or records. ± marks the error that the study gave.
SMILES,organism,assay,system,conditions,how to read,endpoint,result
CC(=O)NC[C@H]1CN(c2ccc(N3CCOCC3)c(F)c2)C(=O)O1,Streptococcus pyogenes,,10 isolates,serum 75%,,MIC50,2 µg/mL
CO/N=C(\C(=O)N[C@@H]1C(=O)N2C(C(=O)O)=C(CSc3nc(=O)c(O)nn3C)CS[C@H]12)c1csc(N)n1,Neisseria gonorrhoeae,broth microdilution,WHO G,1.5 h,,MIC,1 µg/mL
CN[C@H](CC(C)C)C(=O)N[C@H]1C(=O)N[C@@H](CC(N)=O)C(=O)N[C@H]2C(=O)N[C@H]3C(=O)N[C@H](C(=O)N[C@H](C(=O)O)c4cc(O)cc(O)c4-c4cc3ccc4O)[C@H](O)c3ccc(c(Cl)c3)Oc3cc2cc(c3O[C@@H]2O[C@H](CO)[C@@H](O)[C@H](O)[C@H]2O[C@H]2C[C@](C)(N)[C@H](O)[C@H](C)O2)Oc2ccc(cc2Cl)[C@H]1O,Staphylococcus aureus,,"USA300 LAC, female ICR mice, wound infection, full-thickness wound",,,bacterial load,6.23 log CFU/g and 7.21 log CFU/g and 7 log CFU/g and 7.4 log CFU/g and 4.98 log CFU/g
CCCCCOc1ccc(-c2ccc(-c3ccc(C(=O)N[C@H]4C[C@@H](O)[C@@H](OCC[N+](C)(C)C)NC(=O)[C@@H]5[C@@H](O)[C@@H](C)CN5C(=O)[C@H]([C@@H](C)O)NC(=O)[C@H]([C@H](O)[C@@H](O)c5ccc(O)cc5)NC(=O)[C@@H]5C[C@@H](O)CN5C(=O)[C@H]([C@@H](C)O)NC4=O)cc3)cc2)cc1,Candida glabrata,,"5592, neutropenic mouse, disseminated candidiasis","dose not given, average 24 h AUC over 7 days",,free AUC/MIC for 1 log kill,1.5
CC1=NN(c2cccc([N+](=O)[O-])c2)C(=O)C1=NNc1ccc(S(N)(=O)=O)cc1,Saccharomyces cerevisiae,,,10 µg/mL,,glucose uptake,26.277 ± 0.000606%
Cc1cc(OC(C)C)ccc1C(=O)C(C)(C)NC(=O)c1sccc1C,Helicobasidium mompa,mycelial growth,PSA medium,20 °C,,EC50,> 50 µg/mL
CC1=NN(c2cc(Cl)ccc2Cl)C(=O)C1=NNc1ccc(S(N)(=O)=O)cc1,Saccharomyces cerevisiae,,,500 µg/mL,,glucose uptake,64.1%
CC[C@H]1OC(=O)[C@H](C)[C@@H](O[C@H]2C[C@@](C)(OC)[C@@H](O)[C@H](C)O2)[C@H](C)[C@@H](O[C@@H]2O[C@H](C)C[C@H](N(C)C)[C@H]2O)[C@](C)(O)C[C@@H](C)/C(=N\OCOCCOC)[C@H](C)[C@@H](O)[C@]1(C)O,Streptococcus pyogenes,,40 clinical isolates,,,MIC50,0.25 µg/mL
CC1=NCCNC(=O)C1=NNc1ccc(S(N)(=O)=O)cc1,Saccharomyces cerevisiae,,,200 µg/mL,,glucose uptake,28.3%
N=C(N)c1ccc(OCc2cc(Br)cc(COc3ccc(C(=N)N)cc3)c2)cc1,Escherichia coli,checkerboard,552100 clinical isolate,"unit not given, with: rifampicin",lower = stronger synergy,FICI,0.078
O=C(/C=C/c1cccc(S(=O)(=O)Nc2ccccc2)c1)NO,Taenia solium,trypan blue staining,,"IC50, 24 h",,killed cysts,70%
CO[C@H]1[C@H](O[C@H]([C@H]2O[C@@H](n3ccc(=O)[nH]c3=O)[C@H](O)[C@@H]2O)[C@H](NCCCNC(=O)[C@@H](NC(=O)[C@@H](NC(=O)N[C@H](C(=O)O)C(C)C)[C@@H]2CCN=C(N)N2)[C@@H](O)C(C)C)C(=O)O)O[C@H](CN)[C@H]1O,Candida glabrata,alamar blue,DSY565 (NR-51686),,,MIC50,> 35 µg/mL
CC1=NN(c2ccc(F)cc2)C(=O)C1=NNc1ccc(S(N)(=O)=O)cc1,Saccharomyces cerevisiae,,,100 µg/mL,,glucose uptake,44.2%
CC(C)[C@@H]1NC(=O)[C@@H](CO)NC(=O)[C@@H](CCCNC(=N)N)NC(=O)[C@H](Cc2ccccc2)NC1=O,Naegleria fowleri,,,trophozoites,,IC90,> 16 µg/mL
CN[C@H](CC(C)C)C(=O)N[C@H]1C(=O)N[C@@H](CC(N)=O)C(=O)N[C@H]2C(=O)N[C@H]3C(=O)N[C@H](C(=O)N[C@H](C(=O)O)c4cc(O)cc(O)c4-c4cc3ccc4O)[C@H](O)c3ccc(c(Cl)c3)Oc3cc2cc(c3O[C@@H]2O[C@H](CO)[C@@H](O)[C@H](O)[C@H]2O[C@H]2C[C@](C)(N)[C@H](O)[C@H](C)O2)Oc2ccc(cc2Cl)[C@H]1O,Streptococcus pyogenes,,10 isolates,pH 7.0,,MIC50,0.5 µg/mL
CC(=O)ON=C1C=CC(=C(C#N)c2ccccc2)C=C1,Candidozyma auris,,ATCC MYA-5001,concentration not given,,antifungal activity,active
CC1=NN(c2ccc(Cl)cc2)C(=O)C1=NNc1ccc(S(N)(=O)=O)cc1,Saccharomyces cerevisiae,,,10 µg/mL,,glucose uptake,27.372 ± 0.000913%
